{"data": "Assay results of several laboratories", "MT-CYB/UQCRFS1": "MT-CYB/UQCRFS1 (Homo sapiens, UniProt P00156+P47985)", "KEAP1 Kelch domain": "Kelch-like ECH-associated protein 1, Kelch domain (KEAP1, Homo sapiens, UniProt Q14145)", "Dehaloperoxidase B ferric": "Dehaloperoxidase B, ferric (Amphitrite ornata, UniProt Q9NAV7)", "note": "Compare with care: the assays were run in different laboratories. Several values in a cell are separate wells, animals, samples, runs or records. ± marks the error that the study gave.", "sequence of UniProt P47985 (whole entry, looked up)": "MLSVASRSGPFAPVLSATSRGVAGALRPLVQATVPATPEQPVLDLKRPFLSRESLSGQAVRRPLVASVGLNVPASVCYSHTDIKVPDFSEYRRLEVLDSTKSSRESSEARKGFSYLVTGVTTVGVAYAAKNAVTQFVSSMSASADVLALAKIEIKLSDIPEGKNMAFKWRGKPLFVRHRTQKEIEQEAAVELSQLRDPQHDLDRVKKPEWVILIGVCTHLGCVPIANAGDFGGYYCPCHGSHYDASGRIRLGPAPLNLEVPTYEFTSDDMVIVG", "sequence of UniProt P00156 (whole entry, looked up)": "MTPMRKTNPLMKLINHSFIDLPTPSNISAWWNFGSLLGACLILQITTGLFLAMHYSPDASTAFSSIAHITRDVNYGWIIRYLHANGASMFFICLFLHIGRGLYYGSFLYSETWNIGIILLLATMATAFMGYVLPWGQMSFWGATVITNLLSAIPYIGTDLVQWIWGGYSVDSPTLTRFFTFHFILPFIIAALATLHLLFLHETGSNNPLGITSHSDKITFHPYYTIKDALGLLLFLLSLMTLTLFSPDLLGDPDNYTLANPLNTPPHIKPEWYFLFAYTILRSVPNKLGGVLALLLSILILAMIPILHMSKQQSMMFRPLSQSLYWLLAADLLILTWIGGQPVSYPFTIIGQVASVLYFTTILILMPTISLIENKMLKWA", "sequence of UniProt Q14145 (whole entry, looked up)": "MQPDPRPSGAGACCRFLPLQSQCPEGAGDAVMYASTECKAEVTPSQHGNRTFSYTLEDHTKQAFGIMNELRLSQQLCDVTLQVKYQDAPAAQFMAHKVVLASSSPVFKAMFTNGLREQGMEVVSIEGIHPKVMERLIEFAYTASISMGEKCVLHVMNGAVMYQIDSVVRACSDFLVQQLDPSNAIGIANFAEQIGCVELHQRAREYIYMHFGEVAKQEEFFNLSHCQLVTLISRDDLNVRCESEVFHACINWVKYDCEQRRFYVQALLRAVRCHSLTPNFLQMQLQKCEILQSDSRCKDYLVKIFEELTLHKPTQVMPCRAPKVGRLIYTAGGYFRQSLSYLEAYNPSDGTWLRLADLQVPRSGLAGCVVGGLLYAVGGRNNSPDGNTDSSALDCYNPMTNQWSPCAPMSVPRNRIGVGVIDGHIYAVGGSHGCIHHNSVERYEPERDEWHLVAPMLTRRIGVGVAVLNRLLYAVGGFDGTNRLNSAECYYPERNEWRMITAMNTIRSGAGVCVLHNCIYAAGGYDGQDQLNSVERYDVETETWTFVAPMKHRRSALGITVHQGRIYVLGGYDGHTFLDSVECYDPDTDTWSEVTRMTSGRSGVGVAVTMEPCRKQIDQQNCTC", "sequence of UniProt P51575 (whole entry, unmodified, looked up)": "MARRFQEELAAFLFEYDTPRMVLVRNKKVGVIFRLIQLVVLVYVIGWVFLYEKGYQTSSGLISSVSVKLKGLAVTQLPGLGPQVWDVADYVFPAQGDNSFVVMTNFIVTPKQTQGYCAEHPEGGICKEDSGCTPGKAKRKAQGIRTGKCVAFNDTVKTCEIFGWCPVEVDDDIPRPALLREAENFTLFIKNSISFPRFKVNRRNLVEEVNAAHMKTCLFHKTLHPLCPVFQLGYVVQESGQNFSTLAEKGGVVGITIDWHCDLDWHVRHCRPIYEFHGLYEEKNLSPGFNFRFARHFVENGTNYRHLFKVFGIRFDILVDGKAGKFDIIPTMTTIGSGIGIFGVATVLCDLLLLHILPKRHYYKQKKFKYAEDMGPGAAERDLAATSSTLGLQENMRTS", "sequence of UniProt P31941 (whole entry, looked up)": "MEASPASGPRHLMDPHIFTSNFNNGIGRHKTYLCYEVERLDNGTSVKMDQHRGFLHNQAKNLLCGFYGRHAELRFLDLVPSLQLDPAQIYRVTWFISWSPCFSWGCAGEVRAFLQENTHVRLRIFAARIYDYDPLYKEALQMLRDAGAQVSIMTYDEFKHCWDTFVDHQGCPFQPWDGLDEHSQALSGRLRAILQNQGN", "sequence of UniProt Q9UKS7 (whole entry, looked up)": "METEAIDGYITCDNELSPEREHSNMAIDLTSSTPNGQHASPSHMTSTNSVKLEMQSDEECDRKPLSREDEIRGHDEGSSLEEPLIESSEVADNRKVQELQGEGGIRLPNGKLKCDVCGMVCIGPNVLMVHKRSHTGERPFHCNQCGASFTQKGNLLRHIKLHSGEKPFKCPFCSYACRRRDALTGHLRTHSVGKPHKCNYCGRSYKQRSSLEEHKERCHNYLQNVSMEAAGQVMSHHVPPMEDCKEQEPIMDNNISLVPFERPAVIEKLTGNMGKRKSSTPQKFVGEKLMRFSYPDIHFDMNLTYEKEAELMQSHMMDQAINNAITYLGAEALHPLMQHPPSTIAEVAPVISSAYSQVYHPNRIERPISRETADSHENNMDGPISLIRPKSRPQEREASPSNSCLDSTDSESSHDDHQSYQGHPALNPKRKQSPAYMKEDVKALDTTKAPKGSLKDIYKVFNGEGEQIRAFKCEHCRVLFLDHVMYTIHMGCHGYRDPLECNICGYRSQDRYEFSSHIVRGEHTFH", "sequence of UniProt P61619 (whole entry, looked up)": "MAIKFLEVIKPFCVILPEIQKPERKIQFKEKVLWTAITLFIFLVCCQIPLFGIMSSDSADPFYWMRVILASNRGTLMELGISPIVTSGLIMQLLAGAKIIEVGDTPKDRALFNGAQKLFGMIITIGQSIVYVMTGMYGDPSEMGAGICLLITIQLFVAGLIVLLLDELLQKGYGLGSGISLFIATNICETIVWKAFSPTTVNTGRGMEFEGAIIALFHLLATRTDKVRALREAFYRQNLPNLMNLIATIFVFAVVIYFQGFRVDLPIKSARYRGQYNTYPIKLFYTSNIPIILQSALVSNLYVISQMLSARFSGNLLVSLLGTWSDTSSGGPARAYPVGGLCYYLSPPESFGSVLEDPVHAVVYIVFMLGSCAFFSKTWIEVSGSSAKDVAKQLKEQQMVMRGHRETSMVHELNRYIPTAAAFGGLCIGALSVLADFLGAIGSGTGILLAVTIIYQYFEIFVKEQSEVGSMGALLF", "sequence of UniProt Q99JA4 (whole entry, looked up)": "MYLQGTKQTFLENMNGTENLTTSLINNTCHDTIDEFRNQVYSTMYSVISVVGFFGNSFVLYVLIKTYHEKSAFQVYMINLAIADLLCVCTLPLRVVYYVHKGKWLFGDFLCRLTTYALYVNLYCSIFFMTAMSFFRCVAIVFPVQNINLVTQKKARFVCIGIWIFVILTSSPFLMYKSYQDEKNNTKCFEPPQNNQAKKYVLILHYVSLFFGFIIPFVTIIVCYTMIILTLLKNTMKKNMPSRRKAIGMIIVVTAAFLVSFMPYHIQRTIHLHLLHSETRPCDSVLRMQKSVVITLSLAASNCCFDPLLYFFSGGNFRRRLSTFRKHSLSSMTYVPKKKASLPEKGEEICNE", "sequence of UniProt Q8K3Y3 (whole entry, looked up)": "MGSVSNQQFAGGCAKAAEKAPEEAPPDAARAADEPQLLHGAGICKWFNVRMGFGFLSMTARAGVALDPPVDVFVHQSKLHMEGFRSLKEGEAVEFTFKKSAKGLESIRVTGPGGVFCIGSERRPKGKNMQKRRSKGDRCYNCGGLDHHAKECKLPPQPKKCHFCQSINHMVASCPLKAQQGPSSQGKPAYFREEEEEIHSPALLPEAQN", "sequence of UniProt Q9Y5A9 (whole entry, looked up)": "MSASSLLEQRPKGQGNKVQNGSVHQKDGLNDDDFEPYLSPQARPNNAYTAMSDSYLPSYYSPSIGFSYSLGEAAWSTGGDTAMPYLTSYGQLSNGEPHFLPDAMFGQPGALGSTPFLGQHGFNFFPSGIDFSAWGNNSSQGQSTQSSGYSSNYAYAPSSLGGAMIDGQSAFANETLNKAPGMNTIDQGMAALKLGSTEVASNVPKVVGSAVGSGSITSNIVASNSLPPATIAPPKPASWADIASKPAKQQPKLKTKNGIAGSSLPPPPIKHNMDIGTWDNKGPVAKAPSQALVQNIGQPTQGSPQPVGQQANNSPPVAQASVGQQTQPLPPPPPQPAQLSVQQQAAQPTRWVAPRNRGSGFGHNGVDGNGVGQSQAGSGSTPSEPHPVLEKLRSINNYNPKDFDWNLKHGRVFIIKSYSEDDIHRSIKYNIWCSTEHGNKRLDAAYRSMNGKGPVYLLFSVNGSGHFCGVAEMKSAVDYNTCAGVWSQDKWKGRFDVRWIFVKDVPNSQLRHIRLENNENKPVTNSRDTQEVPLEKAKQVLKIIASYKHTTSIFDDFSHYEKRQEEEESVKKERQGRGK", "sequence of UniProt Q16566 (whole entry, looked up)": "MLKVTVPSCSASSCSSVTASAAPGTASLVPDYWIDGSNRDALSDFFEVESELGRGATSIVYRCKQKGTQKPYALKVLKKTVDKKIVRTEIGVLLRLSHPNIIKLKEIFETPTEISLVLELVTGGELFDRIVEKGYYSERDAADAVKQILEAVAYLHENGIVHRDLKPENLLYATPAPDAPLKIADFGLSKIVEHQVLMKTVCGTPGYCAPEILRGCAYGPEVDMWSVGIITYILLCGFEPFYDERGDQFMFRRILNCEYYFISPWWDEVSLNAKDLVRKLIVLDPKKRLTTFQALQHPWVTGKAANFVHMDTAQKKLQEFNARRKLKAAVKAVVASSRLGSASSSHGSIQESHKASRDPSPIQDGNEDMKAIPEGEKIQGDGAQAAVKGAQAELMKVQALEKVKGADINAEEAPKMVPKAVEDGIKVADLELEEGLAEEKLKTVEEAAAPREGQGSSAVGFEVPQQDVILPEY", "sequence of UniProt Q16774 (whole entry, unmodified, looked up)": "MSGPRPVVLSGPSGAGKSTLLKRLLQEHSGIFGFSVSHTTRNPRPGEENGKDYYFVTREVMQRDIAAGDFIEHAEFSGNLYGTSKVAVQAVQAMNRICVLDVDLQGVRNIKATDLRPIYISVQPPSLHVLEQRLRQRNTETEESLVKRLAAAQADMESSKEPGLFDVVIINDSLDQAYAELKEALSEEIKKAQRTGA"}
{"SMILES": "NCCCC(=O)O", "target or system": "SLC6A6 (Homo sapiens, UniProt P31641, L306A)", "test": "binding, microscale thermophoresis", "setting": "488 nM, room temperature, with: 50 nM labelled protein", "scale": "higher = more binding", "measurement": "normalised MST signal", "value": -0.0824}
{"SMILES": "Nc1ncnc2c1ncn2[C@@H]1O[C@H](COP(=O)(O)CP(=O)(O)OP(=O)(O)O)[C@@H](O)[C@H]1O", "target or system": "P2X purinoceptor 1 (P2RX1, Homo sapiens, UniProt P51575, L218T)", "test": "saturation binding", "system": "HEK293", "setting": "1 nM", "measurement": "specific binding", "value": "108 CCPM and 102 CCPM"}
{"SMILES": "N=C(N)SCc1ccccc1Cl", "target or system": "Protein lin-28 homolog A (Mus musculus, UniProt Q8K3Y3)", "measurement": "Hill slope", "value": -1.6}
{"SMILES": "O=C(COP(=O)(O)O)[C@@H](O)[C@H](O)[C@H](O)COP(=O)(O)O", "target or system": "OXSR1 (Homo sapiens, UniProt O95747)", "test": "thermal proteome profiling", "system": "HepG2 cell lysate", "setting": "concentration not given, 57 over 37 °C, mean", "scale": "baseline: compound over control", "measurement": "thermal stability ratio", "value": 0.592}
{"SMILES": "O=c1nc(SCc2cc(F)cc(C(F)(F)F)c2)nc(SCc2csc3ccc(Cl)cc23)[nH]1", "target or system": "TOP2B (Homo sapiens, UniProt Q02880)", "test": "decatenation", "setting": "125 µM, replicate 2", "measurement": "decatenated DNA", "value": "0%"}
{"SMILES": "CC(=C/C(=O)O)/C=C/C=C(\\C)C1C=C2C(C)(C)CCCC2(C)O1 (centres unmarked)", "target or system": "Rhodopsin (RHO, Homo sapiens, UniProt P08100, P23H)", "test": "immunostaining, refers to: opsin", "system": "COS-7 transfected", "setting": "1.00 µM, unit not given", "scale": "baseline: surface over total stained cells", "measurement": "plasma membrane localization", "value": 0.08}
{"SMILES": "NC(=O)NOCCCCCCCCCCCCCCCCCCCC[P+](c1ccccc1)(c1ccccc1)c1ccccc1.O=C([O-])C(F)(F)F", "target or system": "MT-CYB/UQCRFS1", "test": "complex III-dependent respiration, Seahorse XF96", "system": "HCT-116", "setting": "1 µM, 24 h", "scale": "baseline: control", "measurement": "oxygen consumption rate", "value": "96.6%"}
{"SMILES": "O=C1CCC(N2Cc3cc(C4CCN(Cc5ccccc5)CC4)ccc3C2=O)C(=O)N1 (centres unmarked)", "target or system": "CRBN/Zinc finger protein Helios (Homo sapiens, UniProt Q96SW2+Q9UKS7)", "test": "degrader, immunoblot, refers to: Helios", "system": "Jurkat", "setting": "4 h", "measurement": "Dmax", "value": "55%"}
{"SMILES": "COc1c(O)c(C)cc2c1C(=O)c1c(O)cccc1C2=O", "target or system": "HK-2 co-cultured with HepaRG", "test": "MTT", "setting": "33.33 µM, 24 h", "scale": "baseline: untreated control", "measurement": "viability", "value": "97.6 ± 13.8%"}
{"SMILES": "CCOCc1nc(O)c(-c2nnc(Cc3ccc(Cl)cn3)o2)c(O)c1-c1c(OC)cccc1OC", "target or system": "cardiovascular GPCR panel human", "setting": "up to 30 µM", "measurement": "activity", "value": "inactive"}
{"SMILES": "COc1cc(F)ccc1-c1ncnc(Nc2cccc(C[S@](C)(=N)=O)c2)n1", "target or system": "CAMK4 (Homo sapiens, UniProt Q16566)", "test": "kinase activity", "setting": "10 µM, with: 10 µM ATP", "measurement": "remaining activity", "value": "80%"}
{"SMILES": "NC(=O)NO", "target or system": "MT-CYB/UQCRFS1", "test": "complex III-dependent respiration, Seahorse XF96", "system": "HCT-116", "setting": "3000 µM, 24 h", "scale": "baseline: control", "measurement": "oxygen consumption rate", "value": "94.4 ± 3.28%"}
{"SMILES": "Nc1ncnc2c1ncn2[C@@H]1O[C@H](COP(=O)(O)OP(=O)(O)O)[C@@H](O)[C@H]1O", "target or system": "F-type ATP synthase, Macaca mulatta muscle", "test": "substrate, on-column ATP synthesis", "setting": "pH 7.4", "measurement": "Km", "value": "1520 ± 461 µM"}
{"SMILES": "Oc1ccc(/C=C/c2cc(O)cc(O)c2)cc1", "target or system": "O-methyltransferase (Sorghum bicolor, UniProt A0A1B6PFV1)", "setting": "with: adenine 1 mM", "measurement": "cooperativity factor", "value": 0.63}
{"SMILES": "CC(=O)N[C@@H](C)C(=O)N[C@@H](CC(N)=O)C(=O)NCC(=O)N[C@@H](CC(N)=O)C(=O)N[C@@H](C)C(=O)N[C@@H](CC(N)=O)C(=O)N[C@@H](CCC(=O)O)C(=O)N[C@@H](CCC(=O)O)C(=O)N[C@@H](CC(N)=O)C(=O)NCC(=O)N[C@@H](CCC(=O)O)C(=O)N[C@@H](CCC(N)=O)C(=O)N[C@@H](CCC(=O)O)C(=O)N[C@@H](C)C(=O)N[C@@H](CC(=O)O)C(=O)N[C@@H](CC(N)=O)C(=O)N[C@@H](CCC(=O)O)C(=O)N[C@H](C(=O)N[C@@H](CC(=O)O)C(N)=O)C(C)C", "target or system": "KEAP1 Kelch domain", "test": "binding, ITC", "setting": "pH 7, 298.15 K", "measurement": "ΔG", "value": "-7.45 ± 0.04 kcal/mol"}
{"SMILES": "CN1CCN(c2cc(-c3ccncc3)c(-c3ccc4ccccc4c3)nn2)CC1", "target or system": "TSHR (Homo sapiens, UniProt P16473)", "test": "agonist, FLIPR", "setting": "12.5 µM", "measurement": "activation", "value": "-0.3%"}
{"SMILES": "Cc1cccc(N(O)N=Nc2ccc(S(=O)(=O)Nc3cc(C)on3)cc2)c1", "target or system": "α-glucosidase, rat intestine", "test": "enzyme activity", "setting": "120 µg/mL, with: 4-nitrophenyl α-D-glucopyranoside", "measurement": "inhibition", "value": "22.5 ± 1.38%"}
{"SMILES": "CC[C@H](C)[C@H](NC(=O)[C@@H]1CCCN1C(=O)[C@H](CC(C)C)NC(=O)[C@H](Cc1ccccc1)NC(=O)[C@H](CCC(=O)O)NC(=O)CNC(=O)[C@@H](NC(=O)[C@H](CCC(=O)O)NC(=O)[C@@H]1CCCN1C(=O)[C@H](CC(=O)O)NC(=O)[C@H](CC(C)C)NC(=O)[C@H](CCC(N)=O)NC(=O)[C@H](CC(C)C)NC(=O)[C@H](CCC(N)=O)NC(=O)[C@H](C)NC(=O)[C@H](Cc1ccccc1)NC(C)=O)[C@@H](C)O)C(=O)N[C@@H](CCC(N)=O)C(=O)N1CCC[C@H]1C(=O)N[C@@H](C)C(=O)N[C@@H](CCC(N)=O)C(N)=O", "target or system": "KEAP1 Kelch domain", "test": "binding, ITC", "setting": "pH 7, 298.15 K", "measurement": "ΔH", "value": "-16.65 ± 0.064 kcal/mol"}
{"SMILES": "COc1c(O[C@@H]2O[C@H](CO)[C@@H](O)[C@H](O)[C@H]2O)c(C)cc2c1C(=O)c1c(O)cccc1C2=O", "target or system": "HK-2 co-cultured with HepaRG", "test": "MTT", "setting": "66.67 µM, 24 h", "scale": "baseline: untreated control", "measurement": "cell viability", "value": "66.3 ± 8.24%"}
{"SMILES": "CC(=O)N/C(=C\\c1ccc(Cc2nc3c([nH]2)C(=O)c2ccccc2C3=O)cc1)c1nc2c([nH]1)C(=O)c1ccccc1C2=O", "target or system": "Kelch-like ECH-associated protein 1, with NRF2 (Mus musculus, UniProt Q9Z2X8)", "test": "binding", "setting": "concentration not given, biochemical", "measurement": "activity class", "value": "inactive"}
{"SMILES": "O=C(O)c1ccc(Nc2ncc3c(n2)-c2ccc(Cl)cc2C(c2c(F)cccc2F)=NC3)cc1", "target or system": "Fgr(h)", "test": "kinase activity", "setting": "1 µM", "measurement": "remaining activity", "value": "36%"}
{"SMILES": "CCC1(O)CCCN(C(=O)c2ccc(-c3ccc(F)c(NC(=O)CCl)c3)cc2)C1 (centres unmarked)", "target or system": "DNA dC->dU-editing enzyme APOBEC-3A (Homo sapiens, UniProt P31941)", "test": "covalent modifier, intact protein mass spectrometry, refers to: adduct +26309 Da", "setting": "125 µM, 3 h, 5-fold molar excess", "measurement": "protein adduct", "value": "100%"}
{"SMILES": "O=C1Nc2ccc(Br)cc2C1O (centres unmarked)", "target or system": "Dehaloperoxidase B ferric", "test": "product, HPLC", "setting": "5 min, pH 7, 25 °C, enzyme 10 µM, with: 5-bromoindole and H2O2 500 µM each", "measurement": "product formed", "value": "9.3 M"}
{"SMILES": "CC[C@@H]1[C@H](F)C(=O)N[C@@H]1COc1nccc2cc(C(N)=O)c(OC)cc12", "target or system": "IKBKE (Homo sapiens, UniProt Q14164)", "test": "ATP-site probe binding, ActivX profiling", "system": "THP-1 cell lysate", "setting": "0.01 mM, Lys1 site", "measurement": "inhibition", "value": "20.6%"}
{"SMILES": "Nc1nc2c(ncn2[C@@H]2O[C@H](COP(=O)(O)O)[C@@H](O)[C@H]2O)c(=O)[nH]1", "target or system": "GUK1 (Homo sapiens, UniProt Q16774, R148A)", "test": "binding, ITC", "measurement": "ΔG", "value": "-5.71 kcal/mol"}
{"SMILES": "CCCC[C@H]1C(=O)N(C)[C@@H](CCCC)C(=O)N[C@@H](CCCCNC(=O)CN2CCN(CC(=O)O)CCN(CC(=O)O)CC2)C(=O)N[C@H](C(=O)NCC(N)=O)CSCC(=O)N[C@@H](Cc2ccc(O)cc2)C(=O)N(C)[C@@H](C)C(=O)N[C@@H](CC(N)=O)C(=O)N2CCC[C@H]2C(=O)N[C@@H](Cc2c[nH]cn2)C(=O)N[C@@H](CCC(=O)O)C(=O)N2C[C@H](O)C[C@H]2C(=O)N[C@@H](Cc2c[nH]c3ccccc23)C(=O)N[C@@H](CO)C(=O)N[C@@H](Cc2cn(CC(=O)O)c3ccccc23)C(=O)N1C [gallium-68 labelled]", "target or system": "CD274 (Homo sapiens, UniProt Q9NZQ7)", "test": "PET/CT", "system": "NSCLC patients PD-L1 TPS ≥50%", "measurement": "highest SUVmax", "value": 12.4}
{"SMILES": "CC(C)(O)c1ccccc1CC[C@@H](SCC1(CC(=O)O)CC1)c1cccc(/C=C/c2ccc3ccc(Cl)cc3n2)c1", "target or system": "Cysteinyl leukotriene receptor 1 (Mus musculus, UniProt Q99JA4)", "system": "female MC-Cysltr2 knockout mice, lung", "setting": "intraperitoneal, 30 mg/kg", "measurement": "BAL fluid total cells", "value": "decreased"}
{"SMILES": "O=C1C=Nc2ccc(Br)cc21", "target or system": "Dehaloperoxidase B ferric", "test": "product, HPLC", "setting": "with: 5-bromoindole 500 µM, H2O2 50 µM", "measurement": "share of total products", "value": "40.1%"}
{"SMILES": "CC1(C)C(N(O)C(=O)Nc2ccc(Cl)cc2)N(c2ccc(Cl)cc2)C(=O)N1CC(=O)N/N=C/C=C/c1ccc([N+](=O)[O-])o1 (centres unmarked)", "target or system": "Protein transport protein Sec61 subunit alpha isoform 1 (Homo sapiens, UniProt P61619)", "test": "Sec61-dependent translocation, inhibitor, refers to: CD4 signal peptide-FLuc reporter", "system": "HEK293", "setting": "concentration not given, 6 h", "scale": "baseline: mock", "measurement": "FLuc/RLuc ratio", "value": 0.411}
{"SMILES": "NC(=O)NOCCCCCCCCCCCCCCCC[P+](c1ccccc1)(c1ccccc1)c1ccccc1.O=C([O-])C(F)(F)F", "target or system": "MT-CYB/UQCRFS1", "test": "complex III-dependent respiration, Seahorse XF96", "system": "HCT-116", "setting": "0.3 µM, 24 h", "scale": "baseline: control", "measurement": "oxygen consumption rate", "value": "94.2%"}
{"SMILES": "Cc1ccc(N(O)N=Nc2ccc(S(=O)(=O)Nc3onc(C)c3C)cc2)cc1", "target or system": "α-glucosidase, rat intestine", "test": "enzyme activity", "setting": "20 µg/mL, with: 4-nitrophenyl α-D-glucopyranoside", "measurement": "inhibition", "value": "2.5 ± 0.041%"}
{"SMILES": "O=C(O)[C@@H]1CCCN1c1ncnc2[nH]cnc12 (racemic)", "target or system": "YTHDF2 (Homo sapiens, UniProt Q9Y5A9)", "test": "binding, affinity selection mass spectrometry", "scale": "baseline: other proteins in batch", "measurement": "fold enrichment", "value": 1.32}
{"note": "Repeated from above:"}
{"SMILES": "NC(=O)NOCCCCCCCCCCCCCCCCCCCC[P+](c1ccccc1)(c1ccccc1)c1ccccc1.O=C([O-])C(F)(F)F", "target or system": "MT-CYB/UQCRFS1", "test": "complex III-dependent respiration, Seahorse XF96", "system": "HCT-116", "setting": "1 µM, 24 h", "scale": "baseline: control", "measurement": "oxygen consumption rate", "value": "96.6%"}
{"SMILES": "O=C1CCC(N2Cc3cc(C4CCN(Cc5ccccc5)CC4)ccc3C2=O)C(=O)N1 (centres unmarked)", "target or system": "CRBN/Zinc finger protein Helios (Homo sapiens, UniProt Q96SW2+Q9UKS7)", "test": "degrader, immunoblot, refers to: Helios", "system": "Jurkat", "setting": "4 h", "measurement": "Dmax", "value": "55%"}
